Published values from different studies.
Numbers after ± are the reported error.

| SMILES | host | matrix | route | dose | time | tissue uptake |
| --- | --- | --- | --- | --- | --- | --- |
| N=C(N)NCCC[C@@H]1NC(=O)[C@H](CCCCNC(=O)CNC(=O)CNC(=O)CNC(=O)CC[C@H](NC(=O)CNC(=O)CNC(=O)CNC(=O)CN2CCN(CC(=O)O)CCN(CC(=O)O)CCN(CC(=O)O)CC2)C(=O)NCC(=O)NCC(=O)NCC(=O)NCCCC[C@@H]2NC(=O)[C@@H](Cc3ccccc3)NC(=O)[C@H](CC(=O)O)NC(=O)CNC(=O)[C@H](CCCNC(=N)N)NC2=O)NC(=O)[C@@H](Cc2ccccc2)NC(=O)[C@H](CC(=O)O)NC(=O)CNC1=O [copper-64 labelled] | athymic nu/nu mouse, female | liver | intravenous |  | 0.5 h | 2.6 ± 0.01 %ID/g |
| CC(C)C[C@H](NC(=O)[C@@H](CCCCNC(=O)CCCCCNC(=O)CN1CCN(CC(=O)O)CCN(CC(=O)O)CCN(CC(=O)O)CC1)NC(=O)[C@H](Cc1ccc(O)cc1)NC(=O)[C@H](CO)NC(=O)[C@H](Cc1c[nH]c2ccccc12)NC(=O)[C@H](Cc1cnc[nH]1)NC(=O)[C@@H]1CCC(=O)N1)C(=O)N[C@@H](CCCNC(=N)N)C(=O)N1CCC[C@H]1C(=O)NCC(N)=O [indium-111 labelled] | female athymic nude mouse | kidneys | intravenous | 0.037 MBq | 2 h | 8.88 ± 1.26 %ID/g |
| CCCC[C@H](NC(=O)COCCOCCNC(=O)CN1CCN(CC(=O)O)CCN(CC(=O)O)CC1)C(=O)N[C@H]1CC(=O)NCCCC[C@@H](C(N)=O)NC(=O)[C@H](Cc2c[nH]c3ccccc23)NC(=O)[C@H](CCCNC(=N)N)NC(=O)[C@@H](Cc2ccccc2)NC(=O)[C@H](Cc2c[nH]cn2)NC1=O [copper-64 labelled] | C57 mice | bone | intravenous | 0.37 MBq | 2 h | 0.22 ± 0.07 %ID/g |
| N=C(N)NCCC[C@@H]1NC(=O)[C@H](CCCCNC(=O)CNC(=O)CNC(=O)CNC(=O)CC[C@H](NC(=O)CNC(=O)CNC(=O)CNC(=O)CC[C@H](NC(=O)CN2CCN(CC(=O)O)CCN(CC(=O)O)CCN(CC(=O)O)CC2)C(=O)NCC(=O)NCC(=O)NCC(=O)N[C@@H](CCC(=O)NCC(=O)NCC(=O)NCC(=O)NCCCC[C@@H]2NC(=O)[C@@H](Cc3ccccc3)NC(=O)[C@H](CC(=O)O)NC(=O)CNC(=O)[C@H](CCCNC(=N)N)NC2=O)C(=O)NCC(=O)NCC(=O)NCC(=O)NCCCC[C@@H]2NC(=O)[C@@H](Cc3ccccc3)NC(=O)[C@H](CC(=O)O)NC(=O)CNC(=O)[C@H](CCCNC(=N)N)NC2=O)C(=O)NCC(=O)NCC(=O)NCC(=O)NCCCC[C@@H]2NC(=O)[C@@H](Cc3ccccc3)NC(=O)[C@H](CC(=O)O)NC(=O)CNC(=O)[C@H](CCCNC(=N)N)NC2=O)NC(=O)[C@@H](Cc2ccccc2)NC(=O)[C@H](CC(=O)O)NC(=O)CNC1=O [indium-111 labelled] | female athymic nu/nu mice | lungs | intravenous |  | 4 h | 2.72 ± 0.38 %ID/g |
| CCCC[C@H](NC(=O)CNC(=O)CNC(=O)CN1CCN(CC(=O)O)CCN(CC(=O)O)CCN(CC(=O)O)CC1)C(=O)N[C@H]1CC(=O)NCCCC[C@@H](C(N)=O)NC(=O)[C@H](Cc2c[nH]c3ccccc23)NC(=O)[C@H](CCCNC(=N)N)NC(=O)[C@@H](Cc2ccccc2)NC(=O)[C@H](Cc2c[nH]cn2)NC1=O [lutetium-177 labelled] | C57 mouse, female | brain | intravenous | 0.037 MBq | 2 h | 0.05 ± 0.01 %ID/g |
| N=C(N)NCCC[C@@H]1NC(=O)[C@H](CCCCNC(=O)CNC(=O)CNC(=O)CNC(=O)CC[C@H](NC(=O)CNC(=O)CNC(=O)CNC(=O)CN2CCN(CC(=O)O)CCN(CC(=O)O)CCN(CC(=O)O)CC2)C(=O)NCC(=O)NCC(=O)NCC(=O)NCCCC[C@@H]2NC(=O)[C@@H](Cc3ccccc3)NC(=O)[C@H](CC(=O)O)NC(=O)CNC(=O)[C@H](CCCNC(=N)N)NC2=O)NC(=O)[C@@H](Cc2ccccc2)NC(=O)[C@H](CC(=O)O)NC(=O)CNC1=O [indium-111 labelled] | female athymic nu/nu mice | spleen | intravenous | 111 kBq | 72 h | 0.88 ± 0.17 %ID/g |
| CCCC[C@H](NC(=O)CCCCCCCNC(=O)CN1CCN(CC(=O)O)CCN(CC(=O)O)CC1)C(=O)N[C@H]1CC(=O)NCCCC[C@@H](C(N)=O)NC(=O)[C@H](Cc2c[nH]c3ccccc23)NC(=O)[C@H](CCCNC(=N)N)NC(=O)[C@@H](Cc2ccccc2)NC(=O)[C@H](Cc2c[nH]cn2)NC1=O [copper-64 labelled] | C57 mice | stomach | intravenous | 0.37 MBq | 4 h | 0.43 ± 0.09 %ID/g |
| N=C(N)NCCC[C@@H]1NC(=O)[C@H](CCCCNC(=O)CC[C@H](NC(=O)CC[C@H](NC(=O)CN2CCN(CC(=O)O)CCN(CC(=O)O)CCN(CC(=O)O)CC2)C(=O)N[C@@H](CCC(=O)NCCCC[C@@H]2NC(=O)[C@@H](Cc3ccccc3)NC(=O)[C@H](CC(=O)O)NC(=O)CNC(=O)[C@H](CCCNC(=N)N)NC2=O)C(=O)NCCCC[C@@H]2NC(=O)[C@@H](Cc3ccccc3)NC(=O)[C@H](CC(=O)O)NC(=O)CNC(=O)[C@H](CCCNC(=N)N)NC2=O)C(=O)NCCCC[C@@H]2NC(=O)[C@@H](Cc3ccccc3)NC(=O)[C@H](CC(=O)O)NC(=O)CNC(=O)[C@H](CCCNC(=N)N)NC2=O)NC(=O)[C@@H](Cc2ccccc2)NC(=O)[C@H](CC(=O)O)NC(=O)CNC1=O [indium-111 labelled] | female athymic nu/nu mice | spleen | intravenous | 111 kBq | 1 h | 2.4 ± 0.51 %ID/g |
| CCCC[C@H](NC(=O)CNC(=O)CNC(=O)CN1CCN(CC(=O)O)CCN(CC(=O)O)CC1)C(=O)N[C@H]1CC(=O)NCCCC[C@@H](C(N)=O)NC(=O)[C@H](Cc2c[nH]c3ccccc23)NC(=O)[C@H](CCCNC(=N)N)NC(=O)[C@@H](Cc2ccccc2)NC(=O)[C@H](Cc2c[nH]cn2)NC1=O [technetium-99m labelled] | C57 mouse | skin | iv | 0.037 MBq | 4 h | 0.07 ± 0.07 %ID/g |

Repeated from above:
| SMILES | host | matrix | route | dose | time | tissue uptake |
| --- | --- | --- | --- | --- | --- | --- |
| CCCC[C@H](NC(=O)COCCOCCNC(=O)CN1CCN(CC(=O)O)CCN(CC(=O)O)CC1)C(=O)N[C@H]1CC(=O)NCCCC[C@@H](C(N)=O)NC(=O)[C@H](Cc2c[nH]c3ccccc23)NC(=O)[C@H](CCCNC(=N)N)NC(=O)[C@@H](Cc2ccccc2)NC(=O)[C@H](Cc2c[nH]cn2)NC1=O [copper-64 labelled] | C57 mice | bone | intravenous | 0.37 MBq | 2 h | 0.22 ± 0.07 %ID/g |
